# Values quoted from earlier work that unrelated publications cite.
# Each line is one published result; not all experiments were run side by side. Numbers after ± are the reported error.
# Sequence of UniProt O35627 (whole entry, unmodified, looked up): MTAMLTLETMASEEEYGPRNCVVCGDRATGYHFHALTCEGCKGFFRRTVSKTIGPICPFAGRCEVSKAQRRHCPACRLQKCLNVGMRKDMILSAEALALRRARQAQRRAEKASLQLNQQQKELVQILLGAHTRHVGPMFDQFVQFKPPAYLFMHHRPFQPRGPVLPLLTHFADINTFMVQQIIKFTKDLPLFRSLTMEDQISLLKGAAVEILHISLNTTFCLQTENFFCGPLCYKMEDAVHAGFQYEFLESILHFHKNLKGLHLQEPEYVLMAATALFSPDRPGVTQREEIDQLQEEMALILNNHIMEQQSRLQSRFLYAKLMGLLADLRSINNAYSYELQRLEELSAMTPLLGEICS
SMILES,target or system,assay,system,conditions,scale,measurement,value
O=C1c2ccccc2-c2c1c1ccc([N+](=O)[O-])cc1c(=O)n2CCCN1CCOCC1,prostate DU-145,cell growth,,,,GI50,85 nM
CC[C@H](C)[C@H](NC(=O)[C@H](CCCCN)NC(=O)[C@H](Cc1c[nH]cn1)NC(=O)[C@@H](N)CCCNC(=N)N)C(=O)N[C@@H](CC(C)C)C(=O)N[C@@H](Cc1c[nH]cn1)C(=O)N[C@@H](CCCNC(=N)N)C(=O)N[C@@H](CC(C)C)C(=O)N[C@@H](CC(C)C)C(=O)N[C@@H](CCC(N)=O)C(=O)N[C@@H](CCC(=O)O)C(=O)NCC(=O)N[C@@H](CO)C(=O)O,"Nuclear receptor subfamily 1 group I member 3, with RXR (Mus musculus, UniProt O35627)","binding, isothermal titration calorimetry",,"pH 7.2, 25°C",,ΔG,-7.2 kcal/mol
Cc1ccc(Nc2nccc(N(C)c3ccc4c(C)n(C)nc4c3)n2)cc1S(N)(=O)=O,hiPSC-derived cardiomyocytes,contractility,,72 h,,lowest effective concentration,73.9 µM
CC(C)(c1ccc(O)cc1)c1ccc(O)cc1,Pimephales promelas,reproduction,,,,LOEC,≥ 640 µg/L
CC[C@H](C)[C@H](NC(=O)[C@H](CCCCN)NC(=O)[C@H](CCCCN)NC(=O)[C@H](Cc1ccccc1)NC(=O)[C@@H](CC(C)C)NC(=O)[C@H](CCCCN)NC(=O)[C@@H](N)CCCCN)C(=O)N[C@@H](CC(C)C)C(=O)N[C@@H](CCCCN)C(=O)N[C@@H](Cc1ccc(O)cc1)C(=O)N[C@@H](CC(C)C)C(N)=O,,,horse erythrocytes 5 % v/v,150 µM,,hemolysis,2 ± 2%
Cc1nc(Nc2ncc(C(=O)Nc3c(C)cccc3Cl)s2)cc(N2CCN(CCO)CC2)n1,hiPSC-derived cardiomyocytes,contractility,,"concentration not given, 72 h, at effective concentration",reference: baseline,log2 fold change,0.31
CN[C@H]1C(=O)N[C@@H]2Cc3ccc(cc3)Oc3cc4cc(c3O[C@@H]3O[C@H](C(=O)O)[C@@H](O)[C@H](O)[C@H]3NC(=O)CCCCCCCCC(C)C)Oc3ccc(cc3Cl)[C@@H](O)[C@@H]3NC(=O)[C@H](NC(=O)[C@@H]4NC(=O)[C@@H](NC2=O)c2cc(cc(O)c2Cl)Oc2cc1ccc2O)c1ccc(O)c(c1)-c1c(O[C@H]2O[C@H](CO)[C@@H](O)[C@H](O)[C@@H]2O)cc(O)cc1[C@@H](C(=O)NCCCN(C)C)NC3=O,Staphylococcus aureus,,plasma,"concentration not given, once-weekly dosing",,time above bactericidal concentration,7 to 14 days
O=C1c2ccccc2-c2c1c1ccc([N+](=O)[O-])cc1c(=O)n2C[C@H](O)CO,NCI-60 panel mean,cell growth,,,,GI50,156 ± 61 nM
Cc1ccc(OCC(=O)N(Cc2cccs2)c2ccn[nH]2)cc1,Salmonella typhimurium,abbreviated Ames test,TA98 and TA100,"up to 5000 µg/plate, with and without S9",,Ames test result,negative
CN(C)C/C=C/C(=O)Nc1cc2c(Nc3ccc(F)c(Cl)c3)ncnc2cc1O[C@H]1CCOC1,hiPSC-derived cardiomyocytes,,,"72 h, tested 0 to 100 µM",,beating cessation concentration,3.7 µM
O=C1c2ccccc2-c2c1c1ccc([N+](=O)[O-])cc1c(=O)n2CCCn1ccnc1,CNS SF-539,cell growth,,,,GI50,16 nM
COc1cc2nccc(Oc3ccc(NC(=O)C4(C(=O)Nc5ccc(F)cc5)CC4)cc3)c2cc1OC,hiPSC-derived cardiomyocytes,contractility,,72 h,,lowest effective concentration,91.1 µM
Nc1nc2c(nc(Sc3ccc(Cl)cc3)n2C2O[C@@H]3COP(=O)(O)O[C@H]3[C@H]2O)c(=O)[nH]1 (stereo in doubt),PDE5,"cyclic nucleotide hydrolysis, substrate or inhibitor, isothermal titration calorimetry",,,,Km or Ki,27600 nM
CCCS(=O)(=O)Nc1ccc(F)c(C(=O)c2c[nH]c3ncc(-c4ccc(Cl)cc4)cc23)c1F,hiPSC-derived cardiomyocytes,contractility,,72 h,,lowest effective concentration,11 µM
O=C1c2cccc3c2[C@H](CCC3)CN1[C@@H]1CN2CCC1CC2,,,"patients, plasma","oral, dose not given, netupitant-palonosetron combination, together with: docetaxel 75 to 100 mg/m^2 IV",,Vz/F,633 L
Nc1nc2c(nc(Sc3ccc(Cl)cc3)n2C2OC3COP(O)(=S)OC3C2O)c(=O)[nH]1 (stereo not shown),PDE2A,"cyclic nucleotide hydrolysis, substrate or inhibitor, isothermal titration calorimetry",,,,Km or Ki,52900 nM
O=C(O)CNC(=O)c1ccccc1[131I],,,"normal rat, kidney","10 min, together with: co-injected 99mTc-1",,percent injected dose,5.6 ± 0.6 %ID
Cc1ccccc1-c1cc(N2CCN(C)CC2)ncc1N(C)C(=O)C(C)(C)c1cc(C(F)(F)F)cc(C(F)(F)F)c1,,,"patients, plasma","oral, dose not given, netupitant-palonosetron combination, together with: docetaxel 75 to 100 mg/m^2 IV",,Vz/F,1860 L
CC[C@H](C)CCCCC(=O)N[C@@H](CCN)C(=O)N[C@H](C(=O)N[C@@H](CCN)C(=O)N[C@H]1CCNC(=O)[C@H]([C@@H](C)O)NC(=O)[C@H](CCN)NC(=O)[C@H](CCN)NC(=O)[C@H](CC(C)C)NC(=O)[C@@H](Cc2ccccc2)NC(=O)[C@H](CCN)NC1=O)[C@@H](C)O,,,human patients,"intravenous, two-compartment population PK model",,intercompartmental clearance,9.86 L/h

# Some of these lines once more:
SMILES,target or system,assay,system,conditions,scale,measurement,value
O=C1c2cccc3c2[C@H](CCC3)CN1[C@@H]1CN2CCC1CC2,,,"patients, plasma","oral, dose not given, netupitant-palonosetron combination, together with: docetaxel 75 to 100 mg/m^2 IV",,Vz/F,633 L
Cc1ccccc1-c1cc(N2CCN(C)CC2)ncc1N(C)C(=O)C(C)(C)c1cc(C(F)(F)F)cc(C(F)(F)F)c1,,,"patients, plasma","oral, dose not given, netupitant-palonosetron combination, together with: docetaxel 75 to 100 mg/m^2 IV",,Vz/F,1860 L
